Measured values pooled from the literature.
Protocols differ between the studies behind these lines. Several values in a cell are separate wells, animals, samples, runs or records. ± marks the error that the study gave.
MT-CYB/UQCRFS1: MT-CYB/UQCRFS1 (Homo sapiens, UniProt P00156+P47985)
UniProt P00156, sequence (whole entry, looked up): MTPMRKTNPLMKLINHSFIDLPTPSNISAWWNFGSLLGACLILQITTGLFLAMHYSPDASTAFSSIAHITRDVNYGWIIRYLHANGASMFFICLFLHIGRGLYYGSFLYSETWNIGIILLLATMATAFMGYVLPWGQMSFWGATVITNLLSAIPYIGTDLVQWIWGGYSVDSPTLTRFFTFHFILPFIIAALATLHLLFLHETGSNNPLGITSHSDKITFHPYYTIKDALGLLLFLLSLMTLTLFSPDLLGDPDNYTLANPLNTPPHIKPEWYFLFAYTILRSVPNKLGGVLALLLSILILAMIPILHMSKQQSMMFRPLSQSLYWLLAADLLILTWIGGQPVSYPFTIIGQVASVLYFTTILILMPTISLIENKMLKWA
UniProt P47985, sequence (whole entry, looked up): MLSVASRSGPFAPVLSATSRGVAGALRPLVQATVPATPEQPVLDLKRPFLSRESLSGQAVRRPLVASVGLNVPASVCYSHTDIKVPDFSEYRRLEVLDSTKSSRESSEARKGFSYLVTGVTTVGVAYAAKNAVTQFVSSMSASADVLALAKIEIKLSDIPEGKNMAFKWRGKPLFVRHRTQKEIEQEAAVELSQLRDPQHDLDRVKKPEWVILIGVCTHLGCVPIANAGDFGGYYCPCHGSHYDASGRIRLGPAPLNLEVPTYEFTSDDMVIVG
VRK2: Serine/threonine-protein kinase VRK2 (VRK2, Homo sapiens, UniProt Q86Y07)
UniProt P18669, sequence (whole entry, looked up): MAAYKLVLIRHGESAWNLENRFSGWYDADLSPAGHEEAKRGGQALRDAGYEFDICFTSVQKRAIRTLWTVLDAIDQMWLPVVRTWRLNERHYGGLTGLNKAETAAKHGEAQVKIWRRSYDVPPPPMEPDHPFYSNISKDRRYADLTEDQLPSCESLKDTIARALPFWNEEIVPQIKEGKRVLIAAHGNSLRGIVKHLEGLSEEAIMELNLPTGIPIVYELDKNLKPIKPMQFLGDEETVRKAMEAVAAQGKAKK
UniProt P63092, sequence (whole entry, looked up): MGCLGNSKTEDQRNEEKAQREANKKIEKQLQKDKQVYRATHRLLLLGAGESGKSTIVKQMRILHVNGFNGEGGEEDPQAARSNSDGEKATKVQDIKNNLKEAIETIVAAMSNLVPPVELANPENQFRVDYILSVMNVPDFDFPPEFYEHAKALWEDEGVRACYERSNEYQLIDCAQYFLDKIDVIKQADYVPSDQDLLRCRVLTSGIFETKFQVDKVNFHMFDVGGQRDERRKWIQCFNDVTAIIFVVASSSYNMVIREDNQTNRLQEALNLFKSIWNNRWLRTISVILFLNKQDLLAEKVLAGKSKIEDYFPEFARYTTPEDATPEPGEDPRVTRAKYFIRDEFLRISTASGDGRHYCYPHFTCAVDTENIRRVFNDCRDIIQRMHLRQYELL
UniProt Q16774, sequence (whole entry, looked up): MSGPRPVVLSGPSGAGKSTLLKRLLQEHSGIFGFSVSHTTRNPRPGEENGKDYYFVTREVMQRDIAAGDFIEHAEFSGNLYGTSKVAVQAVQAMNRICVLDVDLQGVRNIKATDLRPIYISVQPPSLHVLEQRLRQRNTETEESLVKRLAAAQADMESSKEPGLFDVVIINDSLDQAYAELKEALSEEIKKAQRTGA
UniProt P51575, sequence (whole entry, unmodified, looked up): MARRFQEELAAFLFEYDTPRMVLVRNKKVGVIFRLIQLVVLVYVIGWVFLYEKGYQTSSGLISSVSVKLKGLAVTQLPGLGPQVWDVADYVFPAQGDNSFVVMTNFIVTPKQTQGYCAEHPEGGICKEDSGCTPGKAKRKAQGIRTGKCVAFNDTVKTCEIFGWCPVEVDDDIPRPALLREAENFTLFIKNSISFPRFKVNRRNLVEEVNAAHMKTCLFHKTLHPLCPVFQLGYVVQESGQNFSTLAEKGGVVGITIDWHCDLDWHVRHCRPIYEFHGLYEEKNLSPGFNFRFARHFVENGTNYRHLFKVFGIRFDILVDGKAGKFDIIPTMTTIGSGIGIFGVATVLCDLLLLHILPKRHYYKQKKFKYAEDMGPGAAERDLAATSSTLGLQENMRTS
UniProt Q13258, sequence (whole entry, unmodified, looked up): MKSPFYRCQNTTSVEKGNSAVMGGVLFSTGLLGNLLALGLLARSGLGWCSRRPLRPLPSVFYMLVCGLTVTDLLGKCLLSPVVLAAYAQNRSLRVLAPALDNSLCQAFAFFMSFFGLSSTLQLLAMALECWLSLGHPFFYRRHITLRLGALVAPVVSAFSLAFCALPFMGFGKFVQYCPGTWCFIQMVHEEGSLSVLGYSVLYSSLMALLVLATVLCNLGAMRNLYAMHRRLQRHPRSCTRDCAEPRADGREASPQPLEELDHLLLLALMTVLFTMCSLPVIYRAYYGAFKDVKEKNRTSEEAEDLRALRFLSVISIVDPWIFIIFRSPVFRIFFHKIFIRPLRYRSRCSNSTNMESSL
UniProt Q86Y07, sequence (whole entry, looked up): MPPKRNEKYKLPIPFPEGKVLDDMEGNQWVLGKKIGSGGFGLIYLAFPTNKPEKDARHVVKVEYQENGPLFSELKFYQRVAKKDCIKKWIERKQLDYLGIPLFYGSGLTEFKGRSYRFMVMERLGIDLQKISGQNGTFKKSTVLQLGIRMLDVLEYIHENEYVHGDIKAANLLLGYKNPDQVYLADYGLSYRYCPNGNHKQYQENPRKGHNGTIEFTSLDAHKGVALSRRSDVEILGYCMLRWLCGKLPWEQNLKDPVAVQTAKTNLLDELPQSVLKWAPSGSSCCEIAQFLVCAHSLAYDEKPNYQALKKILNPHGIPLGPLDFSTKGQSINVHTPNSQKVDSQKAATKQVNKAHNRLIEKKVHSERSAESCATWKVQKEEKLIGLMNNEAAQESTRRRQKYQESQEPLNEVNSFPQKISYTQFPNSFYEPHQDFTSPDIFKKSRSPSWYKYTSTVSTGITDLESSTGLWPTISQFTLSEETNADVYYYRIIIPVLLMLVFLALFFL
UniProt P30939, sequence (whole entry, looked up): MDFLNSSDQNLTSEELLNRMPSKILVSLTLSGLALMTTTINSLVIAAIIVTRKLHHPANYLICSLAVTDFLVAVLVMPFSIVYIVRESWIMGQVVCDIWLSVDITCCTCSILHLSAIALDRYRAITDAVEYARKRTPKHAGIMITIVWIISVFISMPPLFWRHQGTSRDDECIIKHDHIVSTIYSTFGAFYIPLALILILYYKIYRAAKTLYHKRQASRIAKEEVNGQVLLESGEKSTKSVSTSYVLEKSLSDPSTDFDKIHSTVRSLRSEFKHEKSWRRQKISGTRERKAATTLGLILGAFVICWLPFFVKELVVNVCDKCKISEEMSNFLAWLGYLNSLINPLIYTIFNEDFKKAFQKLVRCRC
UniProt Q8K3Y3, sequence (whole entry, looked up): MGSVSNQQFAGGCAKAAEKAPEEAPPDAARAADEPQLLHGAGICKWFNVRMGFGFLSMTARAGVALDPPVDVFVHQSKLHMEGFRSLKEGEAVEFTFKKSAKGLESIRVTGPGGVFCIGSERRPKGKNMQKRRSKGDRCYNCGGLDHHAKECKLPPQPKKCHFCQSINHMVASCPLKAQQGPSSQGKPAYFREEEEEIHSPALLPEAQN
UniProt P53341, sequence (whole entry, unmodified, looked up): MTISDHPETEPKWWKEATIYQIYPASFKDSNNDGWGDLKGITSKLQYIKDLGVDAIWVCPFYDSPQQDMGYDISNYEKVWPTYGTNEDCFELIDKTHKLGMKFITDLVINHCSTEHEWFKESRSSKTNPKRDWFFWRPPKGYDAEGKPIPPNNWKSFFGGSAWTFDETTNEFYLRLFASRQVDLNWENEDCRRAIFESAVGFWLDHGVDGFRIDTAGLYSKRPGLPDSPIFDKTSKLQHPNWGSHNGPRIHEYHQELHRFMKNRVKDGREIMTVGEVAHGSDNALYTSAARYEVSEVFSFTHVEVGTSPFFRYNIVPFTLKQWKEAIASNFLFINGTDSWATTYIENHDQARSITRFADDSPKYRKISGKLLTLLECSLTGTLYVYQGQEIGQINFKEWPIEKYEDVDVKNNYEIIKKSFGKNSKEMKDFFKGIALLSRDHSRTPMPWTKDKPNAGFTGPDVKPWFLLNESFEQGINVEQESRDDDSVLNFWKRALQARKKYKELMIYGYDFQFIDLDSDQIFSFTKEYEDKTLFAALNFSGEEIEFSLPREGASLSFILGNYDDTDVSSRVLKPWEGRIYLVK
UniProt Q14145, sequence (whole entry, unmodified, looked up): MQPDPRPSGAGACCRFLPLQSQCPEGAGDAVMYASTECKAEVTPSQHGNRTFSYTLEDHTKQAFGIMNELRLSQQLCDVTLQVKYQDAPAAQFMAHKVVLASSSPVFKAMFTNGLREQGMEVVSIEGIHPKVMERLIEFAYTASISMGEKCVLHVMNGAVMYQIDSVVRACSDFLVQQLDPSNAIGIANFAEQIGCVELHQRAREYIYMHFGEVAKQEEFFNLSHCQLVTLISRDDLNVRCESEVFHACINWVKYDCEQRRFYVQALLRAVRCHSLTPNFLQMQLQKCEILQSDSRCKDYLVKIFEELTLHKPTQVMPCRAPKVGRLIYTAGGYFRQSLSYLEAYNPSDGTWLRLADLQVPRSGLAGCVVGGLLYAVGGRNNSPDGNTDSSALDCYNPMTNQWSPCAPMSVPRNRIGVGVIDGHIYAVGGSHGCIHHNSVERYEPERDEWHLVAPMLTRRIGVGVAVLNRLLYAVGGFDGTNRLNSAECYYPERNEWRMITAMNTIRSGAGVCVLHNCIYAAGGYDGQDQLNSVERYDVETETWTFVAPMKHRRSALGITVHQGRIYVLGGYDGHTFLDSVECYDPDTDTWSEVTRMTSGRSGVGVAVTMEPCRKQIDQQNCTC
UniProt P31941, sequence (whole entry, looked up): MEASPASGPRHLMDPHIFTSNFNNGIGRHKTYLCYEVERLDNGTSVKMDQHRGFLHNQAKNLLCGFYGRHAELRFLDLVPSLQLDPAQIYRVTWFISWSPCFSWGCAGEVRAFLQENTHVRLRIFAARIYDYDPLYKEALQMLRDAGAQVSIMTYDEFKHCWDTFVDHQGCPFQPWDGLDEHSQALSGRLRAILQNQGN

SMILES	target	test	test system	conditions	how to read	measurement	result
CCC1(O)CCCN(C(=O)c2ccc(-c3ccc(F)c(NC(=O)CCl)c3)cc2)C1 (stereo not shown)	DNA dC->dU-editing enzyme APOBEC-3A (Homo sapiens, UniProt P31941)	covalent modifier, intact protein mass spectrometry, item: adduct +26691 Da		250 µM, 1 h, 10-fold molar excess		protein adduct	0%
CC(=O)N[C@@H](C)C(=O)N[C@@H](CC(N)=O)C(=O)NCC(=O)N[C@@H](CC(N)=O)C(=O)N[C@@H](C)C(=O)N[C@@H](CCC(=O)O)C(=O)N[C@@H](CC(N)=O)C(=O)N[C@@H](CCC(=O)O)C(=O)N[C@@H](CCC(=O)O)C(=O)N[C@@H](CC(N)=O)C(=O)NCC(=O)N[C@@H](CCC(=O)O)C(=O)N[C@@H](CCC(N)=O)C(=O)N[C@@H](CCC(=O)O)C(=O)N[C@@H](C)C(=O)N[C@@H](CC(=O)O)C(=O)N[C@@H](CC(N)=O)C(=O)N[C@@H](CCC(=O)O)C(=O)N[C@H](C(=O)N[C@@H](CC(=O)O)C(N)=O)C(C)C	Kelch-like ECH-associated protein 1, Kelch domain (KEAP1, Homo sapiens, UniProt Q14145)	binding, ITC		pH 7, 298.15 K		ΔH	-14.3 ± 0.153 kcal/mol
C=CC(=O)N1CCN(c2nc(OC[C@@H]3CCCN3C)nc3c(F)c(-c4nc(N)cc(C)c4C(F)(F)F)c(Cl)cc23)[C@@H](C)C1	GTPase KRas, GDP-bound (KRAS, Homo sapiens, UniProt P01116, Q61R)	SPR				dissociation rate constant koff	0.0722 ± 0.0046 s⁻¹
Nc1ncnc2c1ncn2[C@@H]1O[C@H](CSCC[C@H](N)C(=O)O)[C@@H](O)[C@H]1O	O-methyltransferase (Sorghum bicolor, UniProt A0A1B6PFV1)			concentration not given, together with: PTR+		ΔG of binding	-8.42 kcal/mol
CN1CCC(=C2c3ccccc3Sc3ccccc32)CC1	HTR1F (Homo sapiens, UniProt P30939)	agonist		concentration not given		agonist activity	inactive
COc1cc(O)c2c(c1)oc(=O)c1c3cc(O)c(O)cc3oc21	MAL12 (Saccharomyces cerevisiae S288c, UniProt P53341)	fluorescence quenching		310 K		ΔS	-318 J/(mol·K)
C=CC(=O)NCc1cccc(CN(C(=O)Nc2cccc(C(F)(F)F)c2)C2CCN(C(C)CCC)CC2)c1 (stereo not shown)	DCN1-like protein 1 (Homo sapiens, UniProt Q96GG9)	covalent binder, LC-TOF mass spectrometry		60 µM, overnight, 4 °C, together with: DCN1-like protein 1 30 µM		covalent adduct formation	0%
O=C(CSc1n[nH]c(-c2ccccc2Cl)n1)c1ccc(O)c(O)c1	Protein lin-28 homolog A (Mus musculus, UniProt Q8K3Y3)					Hill slope	-1.1
Cc1cc2ccccc2n1CCNC(=O)c1ccc(N2CCCCC2)cc1	PTGDR (Homo sapiens, UniProt Q13258)	receptor antagonism	C6 glioma		reference: EP2 over DP1	selectivity ratio	> 275 fold
CCN1CCC[C@H]1CNC(=O)c1c(O)c(Cl)cc(Cl)c1OC	G-protein coupled receptor 146 (GPR146, Homo sapiens, UniProt Q96CH1)	β-arrestin recruitment, TANGO luminescence, item: GPR146		concentration not given	reference: basal luminescence	log2 fold change	1.15
NC(=O)NOCCCCCCCCCCCCCC[P+](c1ccccc1)(c1ccccc1)c1ccccc1.O=C([O-])C(F)(F)F	MT-CYB/UQCRFS1	complex III-dependent respiration, Seahorse XF96	HCT-116	0.5 µM, 24 h	reference: control	oxygen consumption rate	76.4 ± 3.01%
N=C(N)Nc1nc2ccccc2[nH]1	HVCN1 (Homo sapiens, UniProt Q96D96)	proton current, inhibitor, inside-out patch clamp	Xenopus oocytes	dimeric channel		Hill coefficient	0.93 ± 0.04
O=c1nc(SCc2cc(F)cc(C(F)(F)F)c2)nc(SCc2ccc3sccc3c2)[nH]1	TOP2A (Homo sapiens, UniProt P11388)	DNA relaxation		15.6 µM, replicate 1		relaxed DNA	48.4%
NC(=O)NOCCCCCCCCCC[P+](c1ccccc1)(c1ccccc1)c1ccccc1.O=C([O-])C(F)(F)F	MT-CYB/UQCRFS1	complex III-dependent respiration, Seahorse XF96	HCT-116	5 µM, 24 h	reference: control	oxygen consumption rate	100 ± 5.65%
Cc1cccc(N(O)N=Nc2ccc(S(=O)(=O)Nc3nccs3)cc2)c1	α-glucosidase, rat intestine	enzyme activity		300 µg/mL, together with: 4-nitrophenyl α-D-glucopyranoside		inhibition	45 ± 1.38%
NC(=O)NOCCCCCCCCCCCC[P+](c1ccccc1)(c1ccccc1)c1ccccc1.O=C([O-])C(F)(F)F	MT-CYB/UQCRFS1	complex III-dependent respiration, Seahorse XF96	HCT-116	1.5 µM, 24 h	reference: control	oxygen consumption rate	74 ± 2%

SMILES	target	test	test system	conditions	how to read	measurement	result
Nc1ncnc2c1ncn2[C@@H]1O[C@H](CSCC[C@H](N)C(=O)O)[C@@H](O)[C@H]1O	GNAS, with Gbeta and Ggamma (Homo sapiens, UniProt P63092)	modulator		100 µM, without A2AR	reference: Gs alone	GTP hydrolysis	92.3% and 93.1% and 96.7%
CCCCC[C@H](O)/C=C/[C@H]1C(=O)C[C@H](O)[C@@H]1C/C=C\CCCC(=O)O	PTGDR (Homo sapiens, UniProt Q13258, M112A)	agonist, ONE-GO BRET		0.1562 µM (156 nM)	reference: wild-type receptor maximum	Gs protein activation	87.1%
C=CC(=O)N1CCC[C@@H](n2nc(-c3ccc(Oc4ccccc4)cc3)c3c(N)ncnc32)C1	ZAP70 (Homo sapiens, UniProt P43403)			10 µM		remaining activity	210%
CCCN(O)N=Nc1ccc(S(=O)(=O)Nc2onc(C)c2C)cc1	α-glucosidase, rat intestine	enzyme activity		300 µg/mL, together with: 4-nitrophenyl α-D-glucopyranoside		inhibition	62.5 ± 0.72%
[H]/N=C(/N)NCC(=O)O	SLC6A6 (Homo sapiens, UniProt P31641, L306A)	binding, microscale thermophoresis		1.95 µM, room temperature, together with: 50 nM labelled protein	higher = more binding	normalised MST signal	0.0228
O=C(COP(=O)(O)O)[C@@H](O)[C@H](O)[C@H](O)COP(=O)(O)O	Phosphoglycerate mutase 1 (Homo sapiens, UniProt P18669)			0.07812 mM, unit not given	reference: activity at 10 mM set to 100	enzyme activity	39.2 and 39.7 and 31.2
CCCNCC(O)COc1ccccc1C(=O)CCc1ccccc1 (stereo not shown)	PKD2L1 (Homo sapiens, UniProt Q9P0L9, F514A)	ion current, patch clamp		concentration not given		tail current	inhibited
Cc1cc(Nc2cc(N3CCN(C)CC3)nc(Sc3ccc(NC(=O)C4CC4)cc3)n2)[nH]n1	VRK2	kinase activity, KinaseProfiler		0.03 µM, species human	reference: control	remaining activity	98%
CCCCC[C@@H]1OC(=O)[C@@H](C)N(C)C(=O)[C@H](CCCCC)OC(=O)[C@@H](C)N(C)C(=O)[C@H](CC(=O)O)OC(=O)[C@@H](C)N(C)C(=O)[C@H](CCCCC)OC(=O)[C@@H](C)N(C)C1=O	ryanodine receptor 2 (Sus scrofa, UniProt A0A5G2R1W3)	single-channel gating, planar lipid bilayer		50 µM, pCa 7, porcine		closed dwell time constant T2	79 ± 47 ms
C=CC(=O)N1CCC(COCC(=O)N2CCN(c3nc(-c4cnc(N)nc4C(F)F)nc(N4CCOC[C@@H]4C)n3)CC2)CC1	VRK2	KINOMEscan		1 µM		remaining binding	71%
CN(O)N=Nc1ccc(S(=O)(=O)Nc2nccs2)cc1	α-glucosidase, rat intestine	enzyme activity		180 µg/mL, together with: 4-nitrophenyl α-D-glucopyranoside		inhibition	40 ± 0.29%
CC[C@@H]1[C@H](F)C(=O)N[C@@H]1COc1nccc2cc(C(N)=O)c(OC)cc12	STE20-related kinase adapter protein beta (Homo sapiens, UniProt Q9C0K7)	ATP probe binding, KiNativ profiling, item: Lys1 probe site	THP-1 cell lysate	0.04 mM		inhibition	23.1%
Nc1ncnc2c1ncn2[C@@H]1O[C@H](COP(=O)(O)CP(=O)(O)OP(=O)(O)O)[C@@H](O)[C@H]1O	P2X purinoceptor 1 (P2RX1, Homo sapiens, UniProt P51575, R139P)	saturation binding	HEK293	1 nM		specific binding	18 CCPM and 18.5 CCPM
O=C1Nc2ccc(Br)cc2C1=O	Dehaloperoxidase B, ferric (Amphitrite ornata, UniProt Q9NAV7)	product, HPLC		5 min, pH 7, 25 °C, enzyme 10 µM, together with: 5-bromoindole and H2O2 500 µM each		product formed	6.8 M
O=S(=O)(O)O	GUK1 (Homo sapiens, UniProt Q16774)	enzyme activity, NADH-coupled		5 mM, together with: ATP 2000 µM		reaction velocity	0.116 µM/s and 0.123 µM/s and 0.135 µM/s

Excerpt of the above:
SMILES	target	test	test system	conditions	how to read	measurement	result
C=CC(=O)N1CCN(c2nc(OC[C@@H]3CCCN3C)nc3c(F)c(-c4nc(N)cc(C)c4C(F)(F)F)c(Cl)cc23)[C@@H](C)C1	GTPase KRas, GDP-bound (KRAS, Homo sapiens, UniProt P01116, Q61R)	SPR				dissociation rate constant koff	0.0722 ± 0.0046 s⁻¹
Nc1ncnc2c1ncn2[C@@H]1O[C@H](CSCC[C@H](N)C(=O)O)[C@@H](O)[C@H]1O	O-methyltransferase (Sorghum bicolor, UniProt A0A1B6PFV1)			concentration not given, together with: PTR+		ΔG of binding	-8.42 kcal/mol
CN1CCC(=C2c3ccccc3Sc3ccccc32)CC1	HTR1F (Homo sapiens, UniProt P30939)	agonist		concentration not given		agonist activity	inactive
